Results collected from several papers.
Each line is one published result; not all experiments were run side by side. “And” joins repeats or separate records; there may be more than shown. Numbers after ± are the reported error.
ADRA2C: Alpha-2C adrenergic receptor (ADRA2C, Homo sapiens, UniProt P18825)
UCHL1: Ubiquitin carboxyl-terminal hydrolase isozyme L1 (UCHL1, Homo sapiens, UniProt P09936)
Voltage-dependent P/Q-type calcium channel subunit alpha-1A: Voltage-dependent P/Q-type calcium channel subunit alpha-1A (Homo sapiens, UniProt O00555)
T1: ssDNA, aptamer; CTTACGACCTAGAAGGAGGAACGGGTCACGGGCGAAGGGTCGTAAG
T2: G-quadruplex DNA human telomere fragment (Homo sapiens); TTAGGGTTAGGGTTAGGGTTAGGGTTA
T3: RNA aptamer C48U/G52A, 5'-triphosphate, 2',3'-cyclic phosphate; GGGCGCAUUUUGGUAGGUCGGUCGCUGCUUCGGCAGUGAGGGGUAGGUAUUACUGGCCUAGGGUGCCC

O=C(N1CCN(Cc2ccc(OCc3ccccc3)cc2)CC1)n1cccn1 — time to maximal inhibition (Faah (Rattus norvegicus, UniProt P97612); inhibitor; 5 nM, pH 9, 25 °C): ~3 h
Cc1cc(Oc2ncccc2CN2CCN(c3ccccc3)CC2)ccc1-c1c(C)c(=O)[nH]c(=O)n1C — selectivity ratio (ADRA2C; binding, radioligand binding; with: [3H]rauwolscine; baseline: Ki alpha2B over Ki alpha2C): 8
O=c1nc(SCc2cc(F)cc(C(F)(F)F)c2)nc(SCc2ccc3sccc3c2)[nH]1 — linear DNA (TOP2A (Homo sapiens, UniProt P11388); DNA cleavage; 125 µM, replicate 1): 4.16%
Nc1ncnc2c1ncn2[C@@H]1O[C@H](COP(=O)(O)OP(=O)(O)OP(=O)(O)O)[C@@H](O)[C@H]1O — hydrolysis rate (Acyl-coenzyme A oxidase acox-1.1 (acox-1.1, Caenorhabditis elegans, UniProt O62140); substrate, HPLC; 50 µM, with: lauroyl-CoA and acyl-CoA oxidase): 0.00139 s⁻¹
COc1ccc(-c2csc(NC(=O)CCl)n2)c(OC)c1 — labelling (UCHL1; covalent, intact protein LC-MS; 12.5 µM): 13.7%
O=c1[nH]ccn1-c1ccc(NS(=O)(=O)c2cc(Cl)cc(Cl)c2O)cc1 — remaining activity (malate dehydrogenase; enzyme activity, inhibitor; 200 µM, pH 7.0, 1% DMSO, aggregation counter-screen): 78%
O=C(CCCCCCC(=O)Nc1ccccc1)NO — binding stoichiometry (HDAC8 (Homo sapiens, UniProt Q9BY41); ITC; Tris buffer; concentration not given, pH 7.5): 0.9
Nc1ncnc2c1ncn2[C@@H]1O[C@H](COP(=O)(O)OP(=O)(O)OP(=O)(O)O)[C@@H](O)[C@H]1O — Kd (T1, ssDNA, aptamer; ITC): 710 nM
COc1ccc(NC(=O)C(C#N)=Cc2cccc(Cl)c2Cl)cc1 — labelling (UCHL1; covalent, intact protein LC-MS; 12.5 µM): 29.9%
COc1cc(Nc2ncc3c(n2)-c2ccc(Cl)cc2C(c2c(F)cccc2OC)=NC3)ccc1C(=O)O — remaining activity (MAPK3; kinase activity; 1 µM): 109%
NCCOc1cc(C(=O)Nc2cc(OCCN)c3ccccc3n2)nc(C(=O)Nc2cc(OCCN)c3ccccc3n2)c1 — Kd (T2, G-quadruplex DNA human telomere fragment (Homo sapiens); laser tweezers; 30 s, KCl 100 mM, single-site fit): 490 nM
COc1ccc2c(c1)c(CC(=O)O)c(C)n2C(=O)c1ccc(Cl)cc1 — inhibition (Voltage-dependent P/Q-type calcium channel subunit alpha-1A; ion current, antagonist; HEK293; 30 µM): -6%
O=C(O)C1CCCNC1 (centres unmarked) — normalised MST signal (SLC6A6 (Homo sapiens, UniProt P31641, Y138A); binding, microscale thermophoresis; 125 µM, room temperature, with: 50 nM labelled protein; higher = more binding): 0.969
Oc1ccc([C@@H]2c3c(O)cc(O)cc3[C@@H]3c4c(cc(O)c5c4[C@@H]2[C@H](c2ccc(O)cc2)[C@H]5c2cc(O)cc4c2[C@@H](c2cc(O)cc(O)c2)[C@H](c2ccc(O)cc2)O4)O[C@H]3c2ccc(O)cc2)cc1 — Vmax (Alpha-amylase 1A (AMY1A, Homo sapiens, UniProt P0DUB6); enzyme activity; 10 µM): 555 ± 194 µmol/min
N[C@@H]1C[C@@]1(F)c1ccccc1 — kcat (tyramine oxidase (Arthrobacter sp.); substrate, Lineweaver-Burk plot): 0.12 ± 0.02 s⁻¹
CCCCCCCCC(=O)c1cc(O)c(O)c(O)c1 — activation (THRA (Homo sapiens, UniProt P10827); reporter gene, Gal4 hybrid reporter; 10 µM; baseline: vehicle): 1.16 fold
O=C(O)c1ccc(O)cc1 — current density (BEST1 (Homo sapiens, UniProt O76090); whole-cell patch clamp; HEK293 transiently expressing channel; concentration not given, membrane potential 100 mV): 47.3 pA/pF and 63 pA/pF and 42.3 pA/pF and 42.6 pA/pF and 126 pA/pF and 42.8 pA/pF and 73.9 pA/pF
Nc1ncnc2c1ncn2[C@@H]1O[C@H](COP(=O)(O)CP(=O)(O)OP(=O)(O)O)[C@@H](O)[C@H]1O — specific binding (P2X purinoceptor 1 (P2RX1, Homo sapiens, UniProt P51575, E122A); saturation binding; HEK293; 13 nM): 137 CCPM and 124 CCPM and 163 CCPM
Cc1cc(Oc2ncccc2CN2CCN(c3ccc(O)cc3)CC2)ccc1-c1c(C)c(=O)[nH]c(=O)n1C — selectivity ratio (ADRA2C; binding, radioligand binding; with: [3H]rauwolscine; baseline: Ki alpha2B over Ki alpha2C): 3
CC/C=C(\C)C=O — conversion (Uncharacterized protein PH0856 (Pyrococcus horikoshii, UniProt O58586); substrate; pH 7, 50 °C, anaerobic, shaking 300 rpm, with: NADPH): 36%
CC1CC(C(=O)O)N1C(=O)CCCCc1nc2ccccc2s1 (centres unmarked) — remaining activity (malate dehydrogenase; enzyme activity, inhibitor; 200 µM, pH 7.0, 1% DMSO, aggregation counter-screen): 96%
CN1CCN(c2cc(-c3ccncc3)c(-c3ccc4ccccc4c3)nn2)CC1 — activation (CCR3 (Homo sapiens, UniProt P51677); agonist, FLIPR; 12.5 µM): -0.9%
CC[C@@H]1[C@H](F)C(=O)N[C@@H]1COc1nccc2cc(C(N)=O)c(OC)cc12 — inhibition (TLK2 (Homo sapiens, UniProt Q86UE8); ATP-site probe binding, ActivX profiling; THP-1 cell lysate; 0.04 mM, Lys1 site): 2.6%
CCCCC[C@H](O)/C=C/[C@H]1CCC(=O)[C@@H]1C/C=C\CCCC(=O)O — span (PTGER1 (Homo sapiens, UniProt P34995, S42A); IP1 accumulation, agonist; AD293; mutant S42A; baseline: wild type): 113 ± 3.38%
CC(=O)c1ccc(Oc2c(F)c(F)nc(N3CCCCC3)c2F)cc1 — labelling (UCHL1; covalent, intact protein LC-MS; 12.5 µM): 2.1%
N[C@@H](CCC(=O)O)C(=O)O — median current (glc-2 (Caenorhabditis elegans, UniProt Q17328, R340A/R342A/R351A/R352A/R353A/S341A/T283S); two-electrode voltage clamp; Xenopus laevis oocytes): 4.5 µA
O=C(O)C(O)C(O)C(=O)O.c1cnc2cc3c(cc2n1)[C@@H]1CNC[C@H]3C1 — inhibition (Voltage-dependent P/Q-type calcium channel subunit alpha-1A; ion current, antagonist; 3 µM): -5%
Nc1nc2c(ncn2[C@@H]2O[C@H](COP(=O)(O)OP(=O)(O)OP(=O)(O)O)[C@@H](O)[C@H]2O)c(=O)[nH]1 — Kd (T3, RNA aptamer C48U/G52A, 5'-triphosphate, 2',3'-cyclic phosphate; ITC): 28.2 nM
Cc1[nH]nc(S(=O)(=O)NCc2ccc(Br)cc2C(F)(F)F)c1C(=O)O — remaining activity (malate dehydrogenase; enzyme activity, inhibitor; 200 µM, pH 7.0, 1% DMSO, aggregation counter-screen): 93%
CC(C)[C@@H]1NC(=O)[C@H](CO)NC(=O)[C@H](CO)NC(=O)[C@H](CO)N(C)C(=O)[C@H](CC(=O)O)NC(=O)[C@H](CO)NC(=O)[C@H](Cc2ccccc2)NC(=O)CSC[C@@H](C(=O)NCC(N)=O)NC(=O)[C@H](CC(N)=O)NC(=O)[C@H](CCCNC(=N)N)NC(=O)[C@H](Cc2ccc(-c3ccccc3)cc2)NC(=O)[C@H](Cc2ccc(-c3ccccc3)cc2)NC(=O)[C@H](CC(N)=O)NC(=O)[C@@H]2CCCN2C1=O — Hill coefficient (MDM2 (Homo sapiens, UniProt Q00987); inhibitor, TR-FRET; with: p53 peptide): ~1
CN(C)CCC=C1c2ccccc2C=Cc2ccccc21 — inhibition (Voltage-dependent P/Q-type calcium channel subunit alpha-1A; ion current, antagonist; HEK293; 3 µM): 28%
Cc1ccc(CNC(=O)Cn2cc(CSc3nc4ccccc4[nH]3)nn2)cc1 — geometric mean inhibition (DNA topoisomerase I (calf thymus); enzyme activity, inhibitor; Caco-2; 50, 100, 500 ppm, 30 min, 37 °C): 53%
